Measurements from different studies.
Lines come from different studies, so protocols differ. Values joined by “and” are separate records of one study, mostly repeats; a detail may differ.
Cell line: LOX IMVI

SMILES | read-out | technique | tested at | time | notes | endpoint | result
Cc1n[nH]c2nc(-c3ccc(Cl)cc3)c3c(NC(=O)c4ccccc4)nnc-3n12 |  | NCI60 SRB | 10 µM |  |  | growth percent | 118%
Cn1cncc1C1=CN(c2ncnc3[nH]cnc23)CCS1 |  |  |  |  | melanoma cell line | GI50 | 24500 nM
CCCN1CCN(c2ccc3nc(-c4ccc5nc(-c6cc(OC)ccc6OC)[nH]c5c4)[nH]c3c2)CC1 | cell growth | NCI-60 SRB | 10 µM | 48 h |  | growth percent | -83.3%
O=C(/C=C/C=C/C=C/C1CCCCC1)NC1=C[C@@](O)(/C=C/C=C/C=C/C(=O)NC2=C(O)CCC2=O)[C@@H]2O[C@@H]2C1=O |  | CellTiter-Glo |  | 78 h |  | GI50 | 11600 nM
CC(=O)O[C@H]1C(=O)[C@@]2(C)[C@H]([C@H](OC(=O)c3ccccc3)[C@]3(O)C[C@H](OC(=O)[C@H](O)[C@@H](NC(=O)c4ccccc4)c4ccccc4)C(C)=C1C3(C)C)[C@]1(OC(C)=O)CO[C@@H]1C[C@@H]2O |  | sulforhodamine B |  |  |  | TGI | 1000 nM
C#C[C@@]1(O)[C@@H](CO)O[C@@H](n2cc(Br)c3c(N)ncnc32)[C@@H]1O | cell growth | SRB |  |  |  | TGI | 351 nM and 176 nM
CCOC(=O)CSc1nc(-c2ccc(Cl)cc2)c2c(NC(=O)c3ccccc3)nnc-2[nH]1 |  | NCI60 SRB | 10 µM |  |  | growth percent | 86.9%
CCCN1CCN(c2ccc3[nH]c(-c4ccc5[nH]c(-c6ccc(C(F)(F)F)cc6)nc5c4)nc3c2)CC1 | cell growth | NCI-60 SRB | 10 µM | 48 h |  | growth percent | -92.9%
O=C(Nc1nnc2[nH]c(=S)[nH]c(-c3ccc(Cl)cc3)c1-2)c1ccccc1 |  | NCI60 SRB | 10 µM |  |  | growth percent | 104%
CCCC(CCC)C(=O)OCc1cn(-c2c3ccccc3nc3ccccc23)nn1 |  | NCI60 single dose | 10 µM |  |  | growth | 92.6%
CN1CCN(c2ccc3[nH]c(-c4ccc5[nH]c(-c6ccc(C(F)(F)F)cc6)nc5c4)nc3c2)CC1 | cell growth | NCI-60 SRB | 10 µM | 48 h |  | growth percent | -85.8%
Cc1cc(-c2ccccc2)n(-c2nc(-c3ccc(Cl)cc3)c3c(NC(=O)c4ccccc4)nnc-3[nH]2)n1 |  | NCI60 SRB | 10 µM |  |  | growth percent | 99.2%
Cc1cc(C)n(C(=S)[S][Au][PH](CCCCCC[PH]([Au][S]C(=S)n2nc(C)cc2C)(c2ccccc2)c2ccccc2)(c2ccccc2)c2ccccc2)n1 | cell growth | NCI-60 screen |  |  | melanoma | log10 TGI | > -4
O=C(Nc1nnc2n3c(nc(-c4ccc(Cl)cc4)c1-2)SCC3=O)c1ccccc1 |  | NCI60 SRB | 10 µM |  |  | growth percent | 109%
C#C[C@@]1(O)[C@@H](CO)O[C@@H](n2cc(F)c3c(N)ncnc32)[C@@H]1O | cell growth | SRB |  |  |  | TGI | 1110 nM
Cc1cc(=O)[nH]c(=O)n1Cc1cn(-c2c3ccccc3nc3ccccc23)nn1 |  | NCI60 single dose | 10 µM |  |  | growth | 15.2%
CCCN1CCN(c2ccc3[nH]c(-c4ccc5[nH]c(-c6cc(OC)c(OC)c(OC)c6)nc5c4)nc3c2)CC1 | cell growth | NCI-60 SRB | 10 µM | 48 h |  | growth percent | 67.3%
CCn1cc(-c2cc(Cn3ccoc3=N)cc3c2CCN([C@@H](C)c2cc(OC)ccn2)C3=O)c(C(F)(F)F)n1 | cell growth |  |  | 120 h |  | EC50 | 5.81 nM
CCOc1ccc(-c2nc3cc(-c4nc5cc(N6CCN(C)CC6)ccc5[nH]4)ccc3[nH]2)cc1OCC | cell growth | NCI-60 SRB | 10 µM | 48 h |  | growth percent | -74.5%
CSc1nc(-c2ccc(Cl)cc2)c2c(NC(=O)c3ccccc3)nnc-2[nH]1 |  | NCI60 SRB | 10 µM |  |  | growth percent | 105%
CCCN1CCN(c2ccc3[nH]c(-c4ccc5[nH]c(-c6ccc(OCC)c(OCC)c6)nc5c4)nc3c2)CC1 | cell growth | NCI-60 SRB | 10 µM | 48 h |  | growth percent | -84.3%
O=C1NC(c2ccccc2)(c2ccccc2)C(=O)N1Cc1cn(-c2c3ccccc3nc3ccccc23)nn1 |  | NCI60 single dose | 10 µM |  |  | growth | 78.2%

Repeated from above:
SMILES | read-out | technique | tested at | time | notes | endpoint | result
C#C[C@@]1(O)[C@@H](CO)O[C@@H](n2cc(Br)c3c(N)ncnc32)[C@@H]1O | cell growth | SRB |  |  |  | TGI | 351 nM and 176 nM
CCCC(CCC)C(=O)OCc1cn(-c2c3ccccc3nc3ccccc23)nn1 |  | NCI60 single dose | 10 µM |  |  | growth | 92.6%
